{"data": "Assay results gathered from unrelated publications", "note": "A part holds a random share of what one study measured.", "sequence of UniProt P42336 (whole entry, unmodified, looked up)": "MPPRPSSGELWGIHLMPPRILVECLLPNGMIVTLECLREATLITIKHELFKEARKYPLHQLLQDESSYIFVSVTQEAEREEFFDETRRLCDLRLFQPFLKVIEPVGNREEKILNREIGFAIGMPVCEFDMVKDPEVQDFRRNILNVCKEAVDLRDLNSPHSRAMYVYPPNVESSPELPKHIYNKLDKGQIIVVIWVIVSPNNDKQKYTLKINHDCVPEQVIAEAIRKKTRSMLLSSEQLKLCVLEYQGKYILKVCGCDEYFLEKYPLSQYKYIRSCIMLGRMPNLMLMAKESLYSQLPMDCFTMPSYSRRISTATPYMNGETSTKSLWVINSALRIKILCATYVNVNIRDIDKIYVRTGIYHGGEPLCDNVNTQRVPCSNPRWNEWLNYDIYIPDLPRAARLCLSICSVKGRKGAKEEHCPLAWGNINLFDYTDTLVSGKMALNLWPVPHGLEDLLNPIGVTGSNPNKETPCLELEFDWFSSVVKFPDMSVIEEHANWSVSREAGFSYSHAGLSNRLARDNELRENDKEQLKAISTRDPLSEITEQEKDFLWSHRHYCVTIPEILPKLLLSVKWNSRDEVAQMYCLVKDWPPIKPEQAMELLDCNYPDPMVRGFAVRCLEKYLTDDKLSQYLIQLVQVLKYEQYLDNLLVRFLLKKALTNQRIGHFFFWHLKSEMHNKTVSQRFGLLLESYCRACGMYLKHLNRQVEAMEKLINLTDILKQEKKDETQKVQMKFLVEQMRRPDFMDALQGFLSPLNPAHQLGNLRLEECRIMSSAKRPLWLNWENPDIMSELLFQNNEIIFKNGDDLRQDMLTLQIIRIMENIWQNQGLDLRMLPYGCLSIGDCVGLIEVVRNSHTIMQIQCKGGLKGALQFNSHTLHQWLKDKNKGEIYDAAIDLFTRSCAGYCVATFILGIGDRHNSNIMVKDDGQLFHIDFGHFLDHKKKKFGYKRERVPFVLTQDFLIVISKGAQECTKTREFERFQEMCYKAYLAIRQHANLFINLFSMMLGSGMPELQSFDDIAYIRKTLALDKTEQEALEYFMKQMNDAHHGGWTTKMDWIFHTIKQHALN", "sequence of UniProt P00519 (whole entry, unmodified, looked up)": "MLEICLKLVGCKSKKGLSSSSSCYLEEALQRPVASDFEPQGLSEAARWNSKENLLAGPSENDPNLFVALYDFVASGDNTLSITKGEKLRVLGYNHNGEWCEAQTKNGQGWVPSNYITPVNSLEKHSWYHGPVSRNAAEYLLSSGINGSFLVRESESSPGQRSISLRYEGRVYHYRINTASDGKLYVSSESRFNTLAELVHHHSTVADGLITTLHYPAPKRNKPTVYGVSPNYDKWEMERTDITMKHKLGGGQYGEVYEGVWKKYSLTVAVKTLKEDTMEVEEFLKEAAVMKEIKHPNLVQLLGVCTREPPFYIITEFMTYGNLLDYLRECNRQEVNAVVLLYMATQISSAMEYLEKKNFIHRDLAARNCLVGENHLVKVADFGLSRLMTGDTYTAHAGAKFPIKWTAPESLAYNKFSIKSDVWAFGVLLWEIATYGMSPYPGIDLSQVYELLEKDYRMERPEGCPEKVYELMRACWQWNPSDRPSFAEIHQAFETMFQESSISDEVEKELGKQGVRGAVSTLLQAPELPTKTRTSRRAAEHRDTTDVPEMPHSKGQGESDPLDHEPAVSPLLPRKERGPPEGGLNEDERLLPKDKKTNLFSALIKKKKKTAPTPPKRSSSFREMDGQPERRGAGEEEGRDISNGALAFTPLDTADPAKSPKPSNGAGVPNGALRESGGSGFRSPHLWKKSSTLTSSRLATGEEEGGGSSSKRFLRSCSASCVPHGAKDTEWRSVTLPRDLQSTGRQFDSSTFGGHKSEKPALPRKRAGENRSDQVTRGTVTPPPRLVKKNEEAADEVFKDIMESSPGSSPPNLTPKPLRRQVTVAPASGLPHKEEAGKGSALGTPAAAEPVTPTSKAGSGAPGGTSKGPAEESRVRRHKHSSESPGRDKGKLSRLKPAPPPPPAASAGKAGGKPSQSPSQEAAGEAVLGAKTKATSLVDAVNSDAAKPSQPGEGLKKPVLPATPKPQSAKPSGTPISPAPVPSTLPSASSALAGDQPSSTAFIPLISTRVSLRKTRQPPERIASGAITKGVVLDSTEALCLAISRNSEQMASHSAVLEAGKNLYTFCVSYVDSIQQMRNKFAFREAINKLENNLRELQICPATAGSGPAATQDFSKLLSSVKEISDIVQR", "sequence of UniProt O15530 (whole entry, looked up)": "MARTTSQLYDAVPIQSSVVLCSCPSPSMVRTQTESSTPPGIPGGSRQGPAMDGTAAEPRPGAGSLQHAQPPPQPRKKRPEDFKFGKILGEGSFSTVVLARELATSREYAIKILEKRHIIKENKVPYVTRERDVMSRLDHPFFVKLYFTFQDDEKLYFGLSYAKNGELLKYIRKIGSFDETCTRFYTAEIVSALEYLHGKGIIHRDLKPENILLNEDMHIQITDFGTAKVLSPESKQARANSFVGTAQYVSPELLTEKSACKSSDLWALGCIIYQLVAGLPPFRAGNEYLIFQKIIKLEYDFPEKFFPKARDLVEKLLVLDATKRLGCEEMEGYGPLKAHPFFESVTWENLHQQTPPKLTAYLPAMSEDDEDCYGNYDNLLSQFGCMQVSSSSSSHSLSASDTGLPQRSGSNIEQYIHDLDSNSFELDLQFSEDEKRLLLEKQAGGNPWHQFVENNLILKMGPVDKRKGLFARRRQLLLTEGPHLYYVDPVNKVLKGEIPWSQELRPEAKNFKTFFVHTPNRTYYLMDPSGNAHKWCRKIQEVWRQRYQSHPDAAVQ", "sequence of UniProt Q96GD4 (whole entry, looked up)": "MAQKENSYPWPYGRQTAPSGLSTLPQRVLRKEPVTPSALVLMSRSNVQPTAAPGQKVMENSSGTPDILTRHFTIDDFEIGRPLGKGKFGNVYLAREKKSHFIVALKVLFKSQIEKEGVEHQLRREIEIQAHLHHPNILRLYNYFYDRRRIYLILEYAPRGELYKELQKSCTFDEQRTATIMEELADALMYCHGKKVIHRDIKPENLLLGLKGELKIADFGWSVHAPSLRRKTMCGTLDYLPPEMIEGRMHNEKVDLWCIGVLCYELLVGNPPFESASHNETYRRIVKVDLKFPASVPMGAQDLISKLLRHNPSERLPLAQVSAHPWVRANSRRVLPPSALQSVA", "sequence of UniProt P49761 (whole entry, looked up)": "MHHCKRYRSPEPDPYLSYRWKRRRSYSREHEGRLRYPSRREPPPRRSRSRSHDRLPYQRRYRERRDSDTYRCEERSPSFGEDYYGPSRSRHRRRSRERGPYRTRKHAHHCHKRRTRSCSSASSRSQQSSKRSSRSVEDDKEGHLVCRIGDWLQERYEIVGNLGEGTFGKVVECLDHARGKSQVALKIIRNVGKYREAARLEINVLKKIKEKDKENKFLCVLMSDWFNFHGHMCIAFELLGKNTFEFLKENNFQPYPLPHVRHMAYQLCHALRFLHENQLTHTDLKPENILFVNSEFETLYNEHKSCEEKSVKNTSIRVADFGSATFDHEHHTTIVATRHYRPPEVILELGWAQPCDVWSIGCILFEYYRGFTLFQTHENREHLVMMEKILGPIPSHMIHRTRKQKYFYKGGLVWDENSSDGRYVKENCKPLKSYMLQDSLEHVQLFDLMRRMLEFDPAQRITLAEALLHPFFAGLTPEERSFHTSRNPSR", "sequence of UniProt O95819 (whole entry, looked up)": "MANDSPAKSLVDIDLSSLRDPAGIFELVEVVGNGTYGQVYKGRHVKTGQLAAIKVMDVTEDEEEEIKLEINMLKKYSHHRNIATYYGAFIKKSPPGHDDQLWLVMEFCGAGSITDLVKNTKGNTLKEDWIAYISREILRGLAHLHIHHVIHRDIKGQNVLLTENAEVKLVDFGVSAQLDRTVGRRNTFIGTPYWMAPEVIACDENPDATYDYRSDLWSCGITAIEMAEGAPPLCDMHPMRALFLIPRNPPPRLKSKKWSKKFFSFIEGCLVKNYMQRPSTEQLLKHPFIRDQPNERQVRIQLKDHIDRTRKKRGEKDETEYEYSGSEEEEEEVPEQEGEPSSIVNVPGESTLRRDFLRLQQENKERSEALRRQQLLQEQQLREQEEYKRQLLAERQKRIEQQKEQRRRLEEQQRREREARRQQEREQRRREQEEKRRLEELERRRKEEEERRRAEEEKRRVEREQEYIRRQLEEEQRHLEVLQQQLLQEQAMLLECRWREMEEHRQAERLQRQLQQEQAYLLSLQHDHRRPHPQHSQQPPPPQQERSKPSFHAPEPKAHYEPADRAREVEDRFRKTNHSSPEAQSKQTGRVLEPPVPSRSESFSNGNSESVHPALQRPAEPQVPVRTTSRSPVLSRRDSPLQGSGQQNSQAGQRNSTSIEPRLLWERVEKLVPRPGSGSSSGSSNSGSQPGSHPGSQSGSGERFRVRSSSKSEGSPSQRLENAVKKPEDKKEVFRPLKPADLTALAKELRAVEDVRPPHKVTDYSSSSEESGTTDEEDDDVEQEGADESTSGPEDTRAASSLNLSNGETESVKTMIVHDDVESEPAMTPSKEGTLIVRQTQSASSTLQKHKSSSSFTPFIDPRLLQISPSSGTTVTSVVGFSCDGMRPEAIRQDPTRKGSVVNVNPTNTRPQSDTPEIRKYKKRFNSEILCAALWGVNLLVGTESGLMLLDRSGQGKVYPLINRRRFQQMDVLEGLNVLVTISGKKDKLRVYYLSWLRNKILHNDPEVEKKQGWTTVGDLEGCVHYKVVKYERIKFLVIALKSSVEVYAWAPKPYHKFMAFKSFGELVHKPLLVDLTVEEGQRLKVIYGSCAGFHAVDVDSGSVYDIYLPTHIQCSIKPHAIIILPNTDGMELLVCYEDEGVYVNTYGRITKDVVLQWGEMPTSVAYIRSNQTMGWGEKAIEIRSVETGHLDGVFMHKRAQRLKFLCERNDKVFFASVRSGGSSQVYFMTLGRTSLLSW"}
{"data": "Study 1", "host": "human", "medium": "microsomes or S9", "concentration": "2 µM", "time": "0.5 h"}
{"Structure (SMILES)": "COc1ccccc1C(CC(=O)NCCN(C)C)C(C)C (stereo not drawn)", "remaining compound": "91%"}
{"Structure (SMILES)": "CC(C)n1ncc(N2CCOCC2)c(Cl)c1=O", "remaining compound": "85.6%"}
{"Structure (SMILES)": "COC(=O)c1cc(C)sc1NC(=O)C1CC(=O)NN1C (stereo not drawn)", "remaining compound": "> 99%"}
{"Structure (SMILES)": "Cc1ccc2c(c1)c(N1CCCC1=O)c(C(=O)NCC1CCCO1)n2C (stereo not drawn)", "remaining compound": "> 100%"}
{"Structure (SMILES)": "Cc1noc(C)c1-c1cc(CCC2CNCCO2)ncn1 (stereo not drawn)", "remaining compound": "> 100%"}
{"Structure (SMILES)": "N=c1n(CCN2CCCCC2)c2ccccc2n1CC(O)c1ccccc1 (stereo not drawn)", "remaining compound": "88.4%"}
{"Structure (SMILES)": "Nc1ccc(-c2ccc(S(=O)(=O)c3cccc(N)c3)cc2N)cc1", "remaining compound": "31.2%"}
{"Structure (SMILES)": "CCc1ccc(NC(=O)N2Cc3c(sc4c3CCCC4)-n3cccc3C2C(C)C)cc1 (stereo not drawn)", "remaining compound": "23.9%"}
{"Structure (SMILES)": "Cn1ccnc1COC(=O)c1cc(C(C)(C)C)n[nH]1", "remaining compound": "16.7%"}
{"Structure (SMILES)": "COc1cc(=O)[nH]cc1C(=O)N1CCC(OCC2CCCC2)CC1", "remaining compound": "71%"}
{"Structure (SMILES)": "CCN(CCCN1C(=O)CCC1(C)C(=O)NCCC(C)C)c1cccc(C)c1 (stereo not drawn)", "remaining compound": "4.82%"}
{"Structure (SMILES)": "CCn1cc(-c2cc(C(F)F)n3nc(C)cc3n2)c(C)n1", "remaining compound": "> 99%"}
{"Structure (SMILES)": "O=c1[nH]ccn2nc(-c3ccc(F)cc3)c(CO)c12", "remaining compound": "> 100%"}
{"Structure (SMILES)": "CCn1ncc(NC(=O)c2cc(C)nc3c2c(C)nn3CC)c1C", "remaining compound": "85.6%"}
{"data": "Study 2", "SMILES": "COc1ccc2c(c1)O[C@@H](c1ccc(OC)c(OC)c1)C[C@H]2NC(=O)C1(c2ccc3c(c2)OC(F)(F)O3)CC1", "concentration": "1 µM"}
{"target": "Cyclin-dependent kinase 2 (CDK2, Homo sapiens, UniProt P24941)", "assay": "cell-free assay, competition with immobilised ligand", "remaining binding": "99%"}
{"target": "Serine/threonine-protein kinase BRSK1 (BRSK1, Homo sapiens, UniProt Q8TDC3)", "assay": "cell-free assay, competition with immobilised ligand", "remaining binding": "99%"}
{"target": "Megakaryocyte-associated tyrosine-protein kinase (MATK, Homo sapiens, UniProt P42679)", "assay": "cell-free assay, competition with immobilised ligand", "remaining binding": "93%"}
{"target": "Ephrin type-A receptor 6 (EPHA6, Homo sapiens, UniProt Q9UF33)", "assay": "cell-free assay, competition with immobilised ligand", "remaining binding": "89%"}
{"target": "Serine/threonine-protein kinase PRP4 homolog (PRPF4B, Homo sapiens, UniProt Q13523)", "assay": "cell-free assay, competition with immobilised ligand", "remaining binding": "83%"}
{"target": "Tyrosine-protein kinase ABL1, phosphorylated (ABL1, Homo sapiens, UniProt P00519, F317I)", "assay": "cell-free assay, competition with immobilised ligand", "remaining binding": "78%"}
{"target": "MAP kinase-activated protein kinase 5 (MAPKAPK5, Homo sapiens, UniProt Q8IW41)", "assay": "cell-free assay, competition with immobilised ligand", "remaining binding": "76%"}
{"target": "Epidermal growth factor receptor (EGFR, Homo sapiens, UniProt P00533, L858R)", "assay": "cell-free assay, competition with immobilised ligand", "remaining binding": "97%"}
{"target": "Inhibitor of nuclear factor kappa-B kinase subunit epsilon (IKBKE, Homo sapiens, UniProt Q14164)", "assay": "cell-free assay, competition with immobilised ligand", "remaining binding": "70%"}
{"target": "Serine/threonine-protein kinase SBK1 (SBK1, Homo sapiens, UniProt Q52WX2)", "assay": "cell-free assay, competition with immobilised ligand", "remaining binding": "94%"}
{"target": "Atypical kinase COQ8A, mitochondrial (COQ8A, Homo sapiens, UniProt Q8NI60)", "assay": "cell-free assay, competition with immobilised ligand", "remaining binding": "87%"}
{"target": "Ephrin type-A receptor 5 (EPHA5, Homo sapiens, UniProt P54756)", "assay": "cell-free assay, competition with immobilised ligand", "remaining binding": "100%"}
{"target": "Dual specificity mitogen-activated protein kinase kinase 7 (MAP2K7, Homo sapiens, UniProt O14733)", "assay": "cell-free assay, competition with immobilised ligand", "remaining binding": "88%"}
{"target": "ALK tyrosine kinase receptor (ALK, Homo sapiens, UniProt Q9UM73, C1156Y)", "assay": "cell-free assay, competition with immobilised ligand", "remaining binding": "84%"}
{"target": "Proto-oncogene tyrosine-protein kinase receptor Ret (RET, Homo sapiens, UniProt P07949, M918T)", "assay": "cell-free assay, competition with immobilised ligand", "remaining binding": "90%"}
{"target": "Serine/threonine-protein kinase SIK1 (SIK1, Homo sapiens, UniProt P57059)", "assay": "competition binding", "remaining binding": "100%"}
{"target": "Receptor-type tyrosine-protein kinase FLT3 (FLT3, Homo sapiens, UniProt P36888, D835Y)", "assay": "cell-free assay, competition with immobilised ligand", "remaining binding": "100%"}
{"target": "Bone morphogenetic protein receptor type-1B (BMPR1B, Homo sapiens, UniProt O00238)", "assay": "cell-free assay, competition with immobilised ligand", "remaining binding": "71%"}
{"target": "Mitogen-activated protein kinase 8 (MAPK8, Homo sapiens, UniProt P45983)", "assay": "cell-free assay, competition with immobilised ligand", "remaining binding": "91%"}
{"target": "Serine/threonine-protein kinase ICK (CILK1, Homo sapiens, UniProt Q9UPZ9)", "assay": "binding, competition with immobilised ligand", "remaining binding": "74%"}
{"target": "Cyclin-dependent kinase-like 3 (CDKL3, Homo sapiens, UniProt Q8IVW4)", "assay": "cell-free assay, competition with immobilised ligand", "remaining binding": "94%"}
{"target": "Serine/threonine-protein kinase PAK 4 (PAK4, Homo sapiens, UniProt O96013)", "assay": "cell-free assay, competition with immobilised ligand", "remaining binding": "89%"}
{"data": "Study 3", "Structure (SMILES)": "NC(=O)c1ccc(N(C(N)=O)c2c(F)cccc2F)nc1-c1ccc(F)cc1F", "effect on": "enzyme activity", "mode": "inhibitor", "concentration": "0.5 µM", "reference": "control"}
{"target": "Cyclin-dependent kinase 6, with cyclin D3 (CDK6, Homo sapiens, UniProt Q00534)", "remaining activity [%]": 119}
{"target": "Ephrin type-A receptor 4 (EPHA4, Homo sapiens, UniProt P54764)", "remaining activity [%]": 105}
{"target": "Serine/threonine-protein kinase 16 (STK16, Homo sapiens, UniProt O75716)", "remaining activity [%]": 100}
{"target": "Tyrosine-protein kinase ABL1 (ABL1, Homo sapiens, UniProt P00519)", "remaining activity [%]": 99.7}
{"target": "Cyclin-dependent kinase 1, with cyclin B (CDK1, Homo sapiens, UniProt P06493)", "remaining activity [%]": 95.7}
{"target": "Serine/threonine-protein kinase 17A (STK17A, Homo sapiens, UniProt Q9UEE5)", "remaining activity [%]": 100}
{"target": "Tyrosine-protein kinase Srms (SRMS, Homo sapiens, UniProt Q9H3Y6)", "remaining activity [%]": 92.9}
{"target": "Homeodomain-interacting protein kinase 4 (HIPK4, Homo sapiens, UniProt Q8NE63)", "remaining activity [%]": 90.5}
{"target": "Serine/threonine-protein kinase WNK3 (WNK3, Homo sapiens, UniProt Q9BYP7)", "remaining activity [%]": 96.6}
{"target": "Dual specificity tyrosine-phosphorylation-regulated kinase 3 (DYRK3, Homo sapiens, UniProt O43781)", "remaining activity [%]": 105}
{"target": "Ephrin type-B receptor 4 (EPHB4, Homo sapiens, UniProt P54760)", "remaining activity [%]": 83.9}
{"target": "Cyclin-dependent kinase 4, with cyclin D3 (CDK4, Homo sapiens, UniProt P11802)", "remaining activity [%]": 98.4}
{"target": "Tyrosine-protein kinase receptor UFO (AXL, Homo sapiens, UniProt P30530)", "remaining activity [%]": 101}
{"target": "Ephrin type-B receptor 1 (EPHB1, Homo sapiens, UniProt P54762)", "remaining activity [%]": 100}
{"target": "Ribosomal protein S6 kinase alpha-5 (RPS6KA5, Homo sapiens, UniProt O75582)", "remaining activity [%]": 92.8}
{"target": "Testis-specific serine/threonine-protein kinase 2 (TSSK2, Homo sapiens, UniProt Q96PF2)", "remaining activity [%]": 88.6}
{"target": "Calcium/calmodulin-dependent protein kinase type II subunit beta (CAMK2B, Homo sapiens, UniProt Q13554)", "remaining activity [%]": 104}
{"target": "cAMP-dependent protein kinase catalytic subunit gamma (PRKACG, Homo sapiens, UniProt P22612)", "remaining activity [%]": 109}
{"target": "Mitogen-activated protein kinase kinase kinase kinase 4 (MAP4K4, Homo sapiens, UniProt O95819)", "remaining activity [%]": 108}
{"target": "MAP kinase-activated protein kinase 3 (MAPKAPK3, Homo sapiens, UniProt Q16644)", "remaining activity [%]": 99.1}
{"target": "Phosphorylase b kinase gamma catalytic chain, skeletal muscle/heart isoform (PHKG1, Homo sapiens, UniProt Q16816)", "remaining activity [%]": 92}
{"target": "Tyrosine-protein kinase Blk (BLK, Homo sapiens, UniProt P51451)", "remaining activity [%]": 100}
{"target": "Homeodomain-interacting protein kinase 2 (HIPK2, Homo sapiens, UniProt Q9H2X6)", "remaining activity [%]": 100}
{"target": "Ribosomal protein S6 kinase alpha-6 (RPS6KA6, Homo sapiens, UniProt Q9UK32)", "remaining activity [%]": 101}
{"target": "3-phosphoinositide-dependent protein kinase 1 (PDPK1, Homo sapiens, UniProt O15530)", "remaining activity [%]": 87.4}
{"data": "Study 4", "Compound": "COc1ccc2[nH]c3c4[nH]c5ccc(OC)cc5c4c4c(c3c2c1)C(=O)NC4=O", "effect on": "binding", "concentration": "1 µM"}
{"target": "Serine/threonine-protein kinase MARK1 (MARK1, Homo sapiens, UniProt Q9P0L2)", "remaining binding [%]": 100}
{"target": "Phosphatidylinositol 4,5-bisphosphate 3-kinase catalytic subunit alpha isoform (PIK3CA, Homo sapiens, UniProt P42336, C420R)", "remaining binding [%]": 90}
{"target": "STE20/SPS1-related proline-alanine-rich protein kinase (STK39, Homo sapiens, UniProt Q9UEW8)", "remaining binding [%]": 100}
{"target": "Aurora kinase B (AURKB, Homo sapiens, UniProt Q96GD4)", "assay": "competition with immobilised ligand", "remaining binding [%]": 16}
{"target": "Dual specificity protein kinase CLK3 (CLK3, Homo sapiens, UniProt P49761)", "remaining binding [%]": 79}
{"target": "Myosin-IIIb (MYO3B, Homo sapiens, UniProt Q8WXR4)", "assay": "competition with immobilised ligand", "remaining binding [%]": 100}
{"target": "Activin receptor type-1B (ACVR1B, Homo sapiens, UniProt P36896)", "assay": "competition with immobilised ligand", "remaining binding [%]": 100}
{"target": "Phosphatidylinositol 4,5-bisphosphate 3-kinase catalytic subunit alpha isoform (PIK3CA, Homo sapiens, UniProt P42336, E545A)", "remaining binding [%]": 100}
{"note": "For quick reference, copied from above (study 2):"}
{"target": "Epidermal growth factor receptor (EGFR, Homo sapiens, UniProt P00533, L858R)", "assay": "cell-free assay, competition with immobilised ligand", "remaining binding": "97%"}
{"target": "Inhibitor of nuclear factor kappa-B kinase subunit epsilon (IKBKE, Homo sapiens, UniProt Q14164)", "assay": "cell-free assay, competition with immobilised ligand", "remaining binding": "70%"}
{"target": "Serine/threonine-protein kinase SBK1 (SBK1, Homo sapiens, UniProt Q52WX2)", "assay": "cell-free assay, competition with immobilised ligand", "remaining binding": "94%"}
{"target": "Atypical kinase COQ8A, mitochondrial (COQ8A, Homo sapiens, UniProt Q8NI60)", "assay": "cell-free assay, competition with immobilised ligand", "remaining binding": "87%"}
{"target": "Ephrin type-A receptor 5 (EPHA5, Homo sapiens, UniProt P54756)", "assay": "cell-free assay, competition with immobilised ligand", "remaining binding": "100%"}
{"target": "Dual specificity mitogen-activated protein kinase kinase 7 (MAP2K7, Homo sapiens, UniProt O14733)", "assay": "cell-free assay, competition with immobilised ligand", "remaining binding": "88%"}
{"target": "ALK tyrosine kinase receptor (ALK, Homo sapiens, UniProt Q9UM73, C1156Y)", "assay": "cell-free assay, competition with immobilised ligand", "remaining binding": "84%"}
{"target": "Proto-oncogene tyrosine-protein kinase receptor Ret (RET, Homo sapiens, UniProt P07949, M918T)", "assay": "cell-free assay, competition with immobilised ligand", "remaining binding": "90%"}
